# Experimental data collected from several papers.
# A part holds a random share of what one study measured. Positions count from the first letter of the parent shown.

# Series 1
# Molecule: PhoQ, residues 284 288 289 292 302 303 ALSMDL
# Technique: Sort-seq
# Refers to: YFP reporter
# Medium: E. coli
# Setting: PhoQ-PhoP variant library
# With: 10 µM Mg2+
# Reference: high Mg2+ state
# Reading: higher = stronger signaling
target,fold induction
"PhoP, residues 12 14 15 18 19 SHWTV (Escherichia coli, UniProt P23836)",24.4
"PhoP, residues 12 14 15 18 19 QYCSL (Escherichia coli, UniProt P23836)",10.2
"PhoP, residues 12 14 15 18 19 STHWV (Escherichia coli, UniProt P23836)",26.4

# Series 2
# Target: CCNB3, cyclin fold, Cln2 fusion (human)
# Technique: yeast growth competition, sequencing
# Medium: yeast
# Setting: weak parent motif
# Reference: not given
# Reading: higher = stronger binding
# Parent: CDKN1A docking peptide (human); SKACRRLFGPVDS; partner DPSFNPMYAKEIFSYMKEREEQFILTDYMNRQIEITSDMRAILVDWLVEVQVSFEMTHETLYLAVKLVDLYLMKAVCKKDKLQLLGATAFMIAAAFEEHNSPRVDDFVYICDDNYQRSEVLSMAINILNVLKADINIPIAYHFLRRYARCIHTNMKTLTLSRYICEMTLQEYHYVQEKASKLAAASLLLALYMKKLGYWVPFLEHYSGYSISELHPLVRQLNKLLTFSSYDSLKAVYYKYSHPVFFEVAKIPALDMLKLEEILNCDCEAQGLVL
Variant,normalised enrichment score
V11F,0.436
C4K,0.614
V11H,0.381
C4P,0.361
A3E,0.189
R5A L7A,0.0785
G9P,0.503
R5Q,0.153

# Series 3
# Target: Histone acetyltransferase KAT6A, winged helix 1, GST fusion (KAT6A, Homo sapiens, UniProt Q92794, residues 1-85)
# Technique: protein binding microarray
# Form: double-stranded DNA, one strand shown
# Medium: in vitro
# Tested at: not given
# Setting: 8-mer, flanks averaged, mean of 2 arrays, mostly near background
# Reference: not given
# Reading: higher = stronger binding
# Construct (chain): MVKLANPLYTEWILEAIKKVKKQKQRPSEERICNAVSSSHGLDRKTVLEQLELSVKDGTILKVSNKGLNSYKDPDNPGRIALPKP
Sequence,E-score
GGCCTTGA,-0.173
CGCGTGAA,0.274
GTTAGCGA,0.0129
ACACATTA,-0.169
CCGATCTC,0.0258
AAATCTTA,-0.114
AGGTGCAT,-0.247
ACCATCTA,-0.195
CCCTTGGA,-0.171

# Series 4
# Target: Fragile X messenger ribonucleoprotein 1, C-terminal low-complexity region (Fmr1, Mus musculus, UniProt P35922)
# Technique: RNA Bind-n-Seq
# Form: RNA
# Medium: in vitro
# Tested at: 200 nM
# Setting: whole 134-nt RNA, ends assumed
# With: 150 mM KCl
# Reference: input library
# Reading: higher = stronger binding
Sequence,log2 enrichment
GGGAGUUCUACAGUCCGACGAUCUUUGACGCGGUGUGUUACGUGGGGGAGAGAAUAAAACUCCAGCGAGAUCCGGGCCGUGAACGAAAGCAGUGACGGAGGAGCUUGUACCACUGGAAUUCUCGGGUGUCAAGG,0.574
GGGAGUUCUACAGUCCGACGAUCGUCCUGUGCUACACAUCGUAUGUACCGAAUCGGGGAAAGGGGAAAAAAAGGGGUGGGGAAAGUAUUAUGUUACGCCGUUCGGAUCUGCACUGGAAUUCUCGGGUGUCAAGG,0.474
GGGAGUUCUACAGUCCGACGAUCACCAUGCAGGUGGGCAUCUUUGGGAAUUGGGGCAAGGGGGGGAUAGGGAGGGGGGUAACACUUUGGGAACAGGUGGUCCCAGGUCGUUUCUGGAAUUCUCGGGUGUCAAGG,0.91
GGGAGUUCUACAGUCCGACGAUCAAGUCCUGUGCUACACAUCGUAUGUACCGAAUCGGUUUUUGGUUUUUGGUUUUUGGGAAAGUAUUAUGUUACGCCGUUCGGAUCUGCACUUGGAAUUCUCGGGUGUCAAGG,-0.89
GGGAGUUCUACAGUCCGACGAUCUUGUGAUAGCCAAGUGGGACUACACCGCCCAGCAGGACCAGGAGCUGGACAUCAAGAAGAACGAGCGGCUGUGGUUGCUGGACGACUCCAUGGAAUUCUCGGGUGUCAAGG,-1.65
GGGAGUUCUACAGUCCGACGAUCAGUCCUGUGCUACACAUCGUAUGUACCGAAUCGGAAAAAGGGAAAAAGGGGAAAAAGGAAAGUAUUAUGUUACGCCGUUCGGAUCUGCACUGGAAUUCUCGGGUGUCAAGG,-0.415
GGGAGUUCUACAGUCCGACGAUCACCAUGGAGGUGGGCAUCUUUGGGAAGUGGGGCAAGGGGGGGAUAGGGAGGGGGGUAACACUUUGGGAACAGGUGGUCCCAGGUCGUUUCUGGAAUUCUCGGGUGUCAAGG,0.51
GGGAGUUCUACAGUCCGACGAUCGUCCUGUGCUACACAUCGUAUGUACCGAAUCGGGGAAAAAAAGGGGAAAGGGGAGGGGAAAGUAUUAUGUUACGCCGUUCGGAUCUGCACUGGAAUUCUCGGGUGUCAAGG,0.443
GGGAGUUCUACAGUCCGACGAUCUCAAGUCCUGUGCUACACAUCGUAUGUACCGAAUCGGGGCCGGCCGGGGCCGGGAAAGUAUUAUGUUACGCCGUUCGGAUCUGCACUUCCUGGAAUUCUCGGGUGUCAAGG,-0.248
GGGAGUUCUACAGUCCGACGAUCACCAUGCAGGUGGGCAUCUUUGGGAAGUGGGGCAAGGGGGGGAUAGGGAGGGGGGUAACACUUUGGGAACAGGUGGUACCAGGUCGUUUCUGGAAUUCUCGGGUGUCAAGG,0.297

# Excerpt of the above (series 2):
Variant,normalised enrichment score
G9P,0.503
R5Q,0.153
